Experimental data gathered from unrelated publications.
Lines come from different studies, so protocols differ. Numbers after ± are the reported error.

CNC(C)Cc1ccc2c(c1)OCO2 (racemic) gave a mood rating of 15.4 (visual analog scale, item: Dizzy; human; oral, 1.5 mg/kg, mean over session, unit not given; baseline: pre-dose baseline).
The percent metabolized of CCC[S+]([O-])c1ccc2[nH]c(NC(=O)OC)nc2c1 (stereo not shown) is reported as 0% (human liver mitochondrial preparation; 1 µM, 30 min, 0.5 mg/mL protein).
The Tmax of C[C@H]1CNCCc2ccc(Cl)cc21 is reported as 17.4 min (male Sprague-Dawley rat, plasma; subcutaneous, 0.5 mg/kg, single dose).
Clc1ccc(-c2c(Cl)ccc(Cl)c2Cl)c(Cl)c1 has an enantiomeric fraction of 0.53 (enantioselective GC; pooled human liver microsomes 0.5 mg/mL; 5 µM, 2 h, 37 °C, together with: NADPH 0.5 mM).
For CN(Cc1cnc2nc(N)nc(N)c2n1)c1ccc(C(=O)N[C@@H](CCC(=O)O)C(=O)O)cc1, “photopic b-wave amplitude” read “increased” (Rho P23H/+ mouse; intravitreal, 100 pmol weekly for four doses, PND 44; baseline: PBS).
Under “maximum tissue concentration”, O=C1Nc2ccc(Cl)cc2[C@@](C#CC2CC2)(C(F)(F)F)O1 is recorded as 1400 ng/g (LC-MS/MS; female hu-HSC-RAG mouse, brain; concentration not given, 1 day after 10-day dosing).
The Tmax of CC[C@H](C)[C@H](NC(=O)[C@@H](N)CCCNC(=N)N)C(=O)N[C@H](C(=O)N1CCC[C@H]1C(=O)N[C@@H](C)C(N)=O)C(C)C is reported as 3 min (CD-1 mouse, female, plasma; intravenous, 60 mg/kg daily, day 14, infused over 1 min).
With O=c1[nH]c(Cc2ccccn2)nc2c1cnn2C1CCOCC1 the half-life was 131 min (healthy men, extensive metabolizers, plasma; oral, 200 mg single dose, tablet, geometric mean).
CCCCCOc1ccc(-c2cc(-c3ccc(C(=O)N[C@H]4C[C@@H](O)[C@@H](O)NC(=O)[C@@H]5[C@@H](O)[C@@H](C)CN5C(=O)[C@H]([C@H](O)CC(N)=O)NC(=O)[C@H]([C@H](O)[C@@H](O)c5ccc(O)c(OS(=O)(=O)O)c5)NC(=O)[C@@H]5C[C@@H](O)CN5C(=O)[C@H]([C@@H](C)O)NC4=O)cc3)no2)cc1 has a Vdss of 1.5 L (preterm neonates, whole cohort, plasma; intravenous, 15 mg/kg/day, repeated dosing, mean).
For CC(C)C[C@H](NC(=O)[C@H](CCC(=O)O)NC(=O)[C@H](CCC(=O)O)NC(=O)[C@H](CC(=O)O)NC(=O)[C@H](CCC(=O)O)NC(=O)[C@H](CCC(=O)O)NC(=O)[C@H](CCC(=O)O)NC(=O)[C@@H](N)CC(=O)O)C(=O)O, the concentration was 43.3 ng/mL (rat, CSF; intravenous, 11.0 mg/kg, 30 min).
COc1cc(Nc2ncc(F)c(Nc3ccc4c(n3)NC(=O)C(C)(C)O4)n2)cc(OC)c1OC has a solubility of ≥ 10 µM (buffer with surfactant or BSA).
[123I]c1cncc(OC[C@@H]2CCN2)c1 has a tissue/plasma ratio of 14 (SPECT; human, high plasma nicotine, hippocampus; intravenous, dose not given; baseline: plasma).
The tissue uptake of CN[C@@](C)(C[18F])C(=O)O is reported as 9.3 ± 1.3 %ID/g (SCID mouse MDA-MB-468 xenograft, spleen; 60 min, post injection).

Some of these lines once more:
CNC(C)Cc1ccc2c(c1)OCO2 (racemic) gave a mood rating of 15.4 (visual analog scale, item: Dizzy; human; oral, 1.5 mg/kg, mean over session, unit not given; baseline: pre-dose baseline).
